# Results from different studies.
# Every numbered part comes from another study and shows a few of its results, in no order. “And” joins repeats or separate records; there may be more than shown.
# Sequence of UniProt Q9BXA7 (whole entry, looked up): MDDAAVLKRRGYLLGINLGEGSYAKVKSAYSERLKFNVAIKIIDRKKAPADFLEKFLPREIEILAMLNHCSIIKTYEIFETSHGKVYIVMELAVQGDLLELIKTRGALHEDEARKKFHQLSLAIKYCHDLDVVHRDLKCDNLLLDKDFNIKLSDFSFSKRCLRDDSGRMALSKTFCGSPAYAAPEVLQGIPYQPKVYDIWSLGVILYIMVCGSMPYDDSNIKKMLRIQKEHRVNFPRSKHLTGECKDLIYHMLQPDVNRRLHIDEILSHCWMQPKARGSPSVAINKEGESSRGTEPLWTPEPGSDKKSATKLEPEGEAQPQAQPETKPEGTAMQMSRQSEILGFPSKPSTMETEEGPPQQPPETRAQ
# Sequence of UniProt Q9Y5S2 (whole entry, looked up): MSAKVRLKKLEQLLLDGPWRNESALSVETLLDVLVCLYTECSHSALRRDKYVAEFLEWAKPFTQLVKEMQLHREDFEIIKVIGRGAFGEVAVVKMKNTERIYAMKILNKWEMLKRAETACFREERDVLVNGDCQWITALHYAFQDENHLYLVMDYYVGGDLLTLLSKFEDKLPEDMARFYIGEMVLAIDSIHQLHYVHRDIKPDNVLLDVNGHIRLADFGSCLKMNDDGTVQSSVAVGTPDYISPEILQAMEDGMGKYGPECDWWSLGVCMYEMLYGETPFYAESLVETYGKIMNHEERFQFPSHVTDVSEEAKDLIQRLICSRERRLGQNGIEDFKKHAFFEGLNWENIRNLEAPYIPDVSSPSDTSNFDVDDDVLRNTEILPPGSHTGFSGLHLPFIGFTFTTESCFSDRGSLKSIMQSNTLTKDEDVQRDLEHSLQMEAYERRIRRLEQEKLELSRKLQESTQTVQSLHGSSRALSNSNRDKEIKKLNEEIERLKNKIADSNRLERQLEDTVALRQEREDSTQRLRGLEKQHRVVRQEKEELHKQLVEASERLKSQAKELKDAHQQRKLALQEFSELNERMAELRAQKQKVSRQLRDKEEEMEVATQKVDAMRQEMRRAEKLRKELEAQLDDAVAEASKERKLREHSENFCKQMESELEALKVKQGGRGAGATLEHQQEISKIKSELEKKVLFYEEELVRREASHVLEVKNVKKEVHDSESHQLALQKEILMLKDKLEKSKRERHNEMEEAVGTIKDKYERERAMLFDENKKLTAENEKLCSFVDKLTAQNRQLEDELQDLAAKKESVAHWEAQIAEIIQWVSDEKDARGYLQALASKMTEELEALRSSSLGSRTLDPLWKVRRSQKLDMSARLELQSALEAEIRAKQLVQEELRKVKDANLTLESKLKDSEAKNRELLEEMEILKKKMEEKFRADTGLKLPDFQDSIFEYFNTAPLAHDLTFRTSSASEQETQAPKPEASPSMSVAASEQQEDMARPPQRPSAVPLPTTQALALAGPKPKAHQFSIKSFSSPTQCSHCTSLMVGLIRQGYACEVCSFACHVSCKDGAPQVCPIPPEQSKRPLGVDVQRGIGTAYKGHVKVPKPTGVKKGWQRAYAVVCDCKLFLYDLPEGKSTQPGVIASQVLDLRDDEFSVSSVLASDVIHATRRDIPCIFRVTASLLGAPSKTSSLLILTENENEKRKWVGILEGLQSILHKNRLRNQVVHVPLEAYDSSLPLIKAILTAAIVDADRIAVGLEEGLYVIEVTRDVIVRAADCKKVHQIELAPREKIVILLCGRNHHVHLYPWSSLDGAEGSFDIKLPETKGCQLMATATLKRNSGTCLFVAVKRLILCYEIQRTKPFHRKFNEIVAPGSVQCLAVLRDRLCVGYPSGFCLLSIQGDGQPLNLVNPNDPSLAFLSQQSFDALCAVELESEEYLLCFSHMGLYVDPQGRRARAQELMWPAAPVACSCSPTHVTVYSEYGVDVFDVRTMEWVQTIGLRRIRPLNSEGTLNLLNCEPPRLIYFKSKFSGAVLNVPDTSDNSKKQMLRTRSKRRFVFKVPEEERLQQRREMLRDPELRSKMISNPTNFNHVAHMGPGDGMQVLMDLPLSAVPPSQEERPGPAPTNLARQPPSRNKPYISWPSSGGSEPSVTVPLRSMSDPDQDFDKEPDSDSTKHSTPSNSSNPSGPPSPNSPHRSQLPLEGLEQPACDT
# Sequence of UniProt P37023 (whole entry, looked up): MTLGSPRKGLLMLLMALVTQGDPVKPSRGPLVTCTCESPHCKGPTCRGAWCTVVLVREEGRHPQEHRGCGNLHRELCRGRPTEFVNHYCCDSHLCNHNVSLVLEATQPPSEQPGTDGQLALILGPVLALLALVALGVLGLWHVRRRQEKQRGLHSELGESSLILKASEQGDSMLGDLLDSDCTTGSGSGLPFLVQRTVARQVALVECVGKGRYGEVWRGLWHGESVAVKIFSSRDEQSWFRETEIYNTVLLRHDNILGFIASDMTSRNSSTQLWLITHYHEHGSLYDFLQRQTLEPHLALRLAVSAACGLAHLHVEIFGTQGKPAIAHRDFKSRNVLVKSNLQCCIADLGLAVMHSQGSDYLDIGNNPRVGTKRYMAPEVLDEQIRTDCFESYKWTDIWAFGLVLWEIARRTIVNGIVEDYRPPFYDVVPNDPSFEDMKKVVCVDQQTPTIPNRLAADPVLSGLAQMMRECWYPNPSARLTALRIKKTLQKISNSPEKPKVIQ
# Sequence of UniProt P10721 (whole entry, looked up): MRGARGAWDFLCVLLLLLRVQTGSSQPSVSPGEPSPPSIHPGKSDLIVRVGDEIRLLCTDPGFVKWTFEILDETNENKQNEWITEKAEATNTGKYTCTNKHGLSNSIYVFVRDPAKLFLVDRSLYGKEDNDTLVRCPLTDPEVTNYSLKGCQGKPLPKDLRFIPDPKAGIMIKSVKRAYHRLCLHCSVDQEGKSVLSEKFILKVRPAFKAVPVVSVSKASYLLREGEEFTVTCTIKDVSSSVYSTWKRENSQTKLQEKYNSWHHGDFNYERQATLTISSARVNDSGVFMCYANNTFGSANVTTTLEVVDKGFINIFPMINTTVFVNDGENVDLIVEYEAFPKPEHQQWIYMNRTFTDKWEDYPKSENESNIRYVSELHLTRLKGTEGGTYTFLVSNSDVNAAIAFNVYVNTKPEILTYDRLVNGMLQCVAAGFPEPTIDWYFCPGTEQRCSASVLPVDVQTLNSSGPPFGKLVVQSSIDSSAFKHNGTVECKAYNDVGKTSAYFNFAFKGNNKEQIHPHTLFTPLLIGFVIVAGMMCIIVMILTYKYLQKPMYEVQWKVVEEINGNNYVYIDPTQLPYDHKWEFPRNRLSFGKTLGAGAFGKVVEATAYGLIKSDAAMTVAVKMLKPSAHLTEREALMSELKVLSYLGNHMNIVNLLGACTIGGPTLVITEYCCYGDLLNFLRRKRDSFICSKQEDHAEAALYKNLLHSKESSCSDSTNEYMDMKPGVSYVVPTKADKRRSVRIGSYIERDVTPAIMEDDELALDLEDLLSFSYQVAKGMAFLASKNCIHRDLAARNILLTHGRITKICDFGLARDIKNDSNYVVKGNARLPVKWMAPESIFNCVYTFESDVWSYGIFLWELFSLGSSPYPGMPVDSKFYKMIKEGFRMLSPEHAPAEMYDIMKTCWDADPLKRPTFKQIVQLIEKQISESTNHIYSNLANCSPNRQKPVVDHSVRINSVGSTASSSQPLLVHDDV
# Sequence of UniProt P27037 (whole entry, looked up): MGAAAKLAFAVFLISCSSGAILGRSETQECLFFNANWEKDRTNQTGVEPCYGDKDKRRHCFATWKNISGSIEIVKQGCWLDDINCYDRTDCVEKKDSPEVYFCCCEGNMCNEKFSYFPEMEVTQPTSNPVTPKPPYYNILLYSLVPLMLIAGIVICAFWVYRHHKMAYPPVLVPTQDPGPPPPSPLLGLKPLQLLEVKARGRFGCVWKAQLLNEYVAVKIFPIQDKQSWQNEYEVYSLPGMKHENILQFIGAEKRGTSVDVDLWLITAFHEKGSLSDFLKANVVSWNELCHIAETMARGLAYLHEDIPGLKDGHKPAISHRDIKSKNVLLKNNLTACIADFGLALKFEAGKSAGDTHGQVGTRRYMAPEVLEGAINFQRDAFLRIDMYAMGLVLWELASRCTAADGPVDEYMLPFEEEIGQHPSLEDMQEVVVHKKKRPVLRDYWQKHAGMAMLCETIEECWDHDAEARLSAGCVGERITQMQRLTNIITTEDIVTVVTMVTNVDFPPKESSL
# Sequence of UniProt P11802 (whole entry, looked up): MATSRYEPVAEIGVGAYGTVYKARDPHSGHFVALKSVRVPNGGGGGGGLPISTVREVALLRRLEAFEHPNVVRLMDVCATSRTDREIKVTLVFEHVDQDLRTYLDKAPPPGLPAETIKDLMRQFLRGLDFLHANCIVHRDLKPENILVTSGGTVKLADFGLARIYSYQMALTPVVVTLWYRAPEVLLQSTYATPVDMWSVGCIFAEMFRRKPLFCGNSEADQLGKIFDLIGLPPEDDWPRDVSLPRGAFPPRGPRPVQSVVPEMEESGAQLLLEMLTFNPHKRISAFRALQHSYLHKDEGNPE

# Series 1 — host: mouse; sample: microsomes or S9; tested at: 2 µM; time: 0.5 h
Compound,remaining compound [%]
CCN(CC)S(=O)(=O)c1ccc(NC(=O)C(C)N(c2ccc(C)c(C)c2)S(C)(=O)=O)cc1 (stereo not drawn),88.3
Cc1nc2c(c(C)c1CNC(=O)COC1CCCCC1)c(=O)[nH]n2C,80.9
COc1cc(=O)n2c(c1C(=O)NCc1ccccc1Cl)CCCC2,52.3
COc1ccc(CN2C(=O)C3=C(C#N)c4ccccc4Oc4cccc2c43)cc1,83.3

# Series 2 — technique: competition with immobilised ligand; tested at: 1 µM
# Compound: C[C@@H](c1cccc(C#N)c1)n1cc(Cl)cc(C(N)=O)c1=N
target,test,remaining binding
"Serine/threonine-protein kinase MRCK beta (CDC42BPB, Homo sapiens, UniProt Q9Y5S2)",cell-free assay,100%
"Receptor-type tyrosine-protein kinase FLT3 (FLT3, Homo sapiens, UniProt P36888, N841I)",cell-free assay,86%
"Testis-specific serine/threonine-protein kinase 1 (TSSK1B, Homo sapiens, UniProt Q9BXA7)",cell-free assay,100%
"Tyrosine-protein kinase ABL1, phosphorylated (ABL1, Homo sapiens, UniProt P00519, E255K)",binding,82%
"LIM domain kinase 1 (LIMK1, Homo sapiens, UniProt P53667)",cell-free assay,100%
"Activin receptor type-2A (ACVR2A, Homo sapiens, UniProt P27037)",cell-free assay,100%
"Cyclin-dependent kinase 4 (CDK4, Homo sapiens, UniProt P11802)",cell-free assay,99%
"Mitogen-activated protein kinase kinase kinase 11 (MAP3K11, Homo sapiens, UniProt Q16584)",cell-free assay,100%
"Calcium/calmodulin-dependent protein kinase type II subunit alpha (CAMK2A, Homo sapiens, UniProt Q9UQM7)",cell-free assay,100%
"Activin receptor type-1-like (ACVRL1, Homo sapiens, UniProt P37023)",binding,80%
"Casein kinase I isoform gamma-1 (CSNK1G1, Homo sapiens, UniProt Q9HCP0)",cell-free assay,82%
"Cyclin-dependent kinase 13 (CDK13, Homo sapiens, UniProt Q14004)",cell-free assay,100%
"Tyrosine-protein kinase ABL1, phosphorylated (ABL1, Homo sapiens, UniProt P00519, M351T)",cell-free assay,0%
"Receptor-type tyrosine-protein kinase FLT3 (FLT3, Homo sapiens, UniProt P36888, D835H)",cell-free assay,81%
"Mast/stem cell growth factor receptor Kit (KIT, Homo sapiens, UniProt P10721)",cell-free assay,93%
"Membrane-associated tyrosine- and threonine-specific cdc2-inhibitory kinase (PKMYT1, Homo sapiens, UniProt Q99640)",cell-free assay,100%
"Transient receptor potential cation channel subfamily M member 6 (TRPM6, Homo sapiens, UniProt Q9BX84)",cell-free assay,71%
"Proto-oncogene tyrosine-protein kinase receptor Ret (RET, Homo sapiens, UniProt P07949)",cell-free assay,100%

# Series 3 — mode: antagonist
# Target: Beta-1 adrenergic receptor (ADRB1, Homo sapiens, UniProt P08588)
# Sequence of UniProt P08588 (whole entry, looked up): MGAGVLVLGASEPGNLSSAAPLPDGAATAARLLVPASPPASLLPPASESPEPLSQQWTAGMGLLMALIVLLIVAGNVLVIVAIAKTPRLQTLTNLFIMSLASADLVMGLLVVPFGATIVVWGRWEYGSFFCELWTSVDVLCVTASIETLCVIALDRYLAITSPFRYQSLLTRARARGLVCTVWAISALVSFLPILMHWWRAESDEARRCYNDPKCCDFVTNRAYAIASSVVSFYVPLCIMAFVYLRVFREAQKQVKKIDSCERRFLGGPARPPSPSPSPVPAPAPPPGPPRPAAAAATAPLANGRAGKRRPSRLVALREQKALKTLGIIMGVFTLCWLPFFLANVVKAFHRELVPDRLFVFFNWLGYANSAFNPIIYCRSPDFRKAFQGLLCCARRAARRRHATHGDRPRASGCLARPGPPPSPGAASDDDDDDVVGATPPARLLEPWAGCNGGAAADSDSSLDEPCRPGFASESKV
SMILES,IC50 [µM]
COc1ccccc1N1CCN(C(=O)c2ccc(F)cc2)CC1,≥ 100
CCc1sc(-c2cc3ccc(O)cc3oc2=O)nc1-c1cc(C)ccc1C,≥ 100
c1ccc(-c2nc(NCc3cc4n(n3)CCCNC4)c3ccccc3n2)cc1,≥ 100
CC(=O)Oc1ccc2cc(-c3nc4c(s3)CCc3ccccc3-4)c(=O)oc2c1,≥ 100

# Series 4 — cell line: mouse MPNST tumor cells; technique: high-content immunofluorescence imaging; measured: nuclear SOX9; tested at: 10 µM; time: 12 h; notes: mean of 2 replicates; relative to: DMSO control; reading: higher = more nuclear SOX9
SMILES,nuclear SOX9 intensity
Cc1cc(C)c(S(=O)(=O)Nc2ccccc2C(F)(F)F)c(C)c1,109 % of DMSO
COc1ccc([C@@H]2Sc3ccccc3N(CCN(C)C)C(=O)[C@@H]2OC(C)=O)cc1,113 % of DMSO and 121 % of DMSO
NNc1nncc2ccccc12,103 % of DMSO
CC(=O)Oc1cccc2c1C(=O)c1c(OC(C)=O)cc(C(=O)O)cc1C2=O,104 % of DMSO and 111 % of DMSO

# Series 5 — technique: protein-binding microarray; form: double-stranded DNA, one strand shown; sample: in vitro; tested at: 2540 nM top; notes: 60-bp whole probe; together with: salmon DNA 0.4 mg/ml; relative to: random background probes; reading: higher = stronger binding; all sequences stand within: GCCTAGCAC … GTCTTGATTCGCTTGACGCTGCTG
# Target: Interferon regulatory factor 3, full length, phosphomimetic (IRF3, Homo sapiens, UniProt Q14653, residues 1-427, S386D/S396D/S398D/S402D/T404D/S405D)
# Construct (chain): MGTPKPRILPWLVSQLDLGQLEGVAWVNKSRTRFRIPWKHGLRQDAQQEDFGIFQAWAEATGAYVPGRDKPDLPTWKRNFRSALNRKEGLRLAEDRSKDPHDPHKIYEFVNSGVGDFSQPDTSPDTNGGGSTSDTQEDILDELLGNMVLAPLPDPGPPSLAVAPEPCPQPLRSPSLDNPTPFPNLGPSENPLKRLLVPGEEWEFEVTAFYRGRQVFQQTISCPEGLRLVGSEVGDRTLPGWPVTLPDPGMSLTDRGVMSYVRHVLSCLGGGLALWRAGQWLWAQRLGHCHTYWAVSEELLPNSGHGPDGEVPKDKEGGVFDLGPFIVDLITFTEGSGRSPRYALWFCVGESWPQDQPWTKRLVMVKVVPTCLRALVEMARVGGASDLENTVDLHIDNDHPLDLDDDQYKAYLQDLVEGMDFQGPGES
Sequence,fitted relative affinity
TCAACCCTCCCTCTGTAAGTGTGCTAG,-0.053 z-score
TTAGATATCAGTATTGATTAGTGCTAG,0.855 z-score
TTAGGACTGGGGTATCCGTTAGTGCTA,-0.152 z-score
TCAATCGTCCCTTTGAGACTGTGCTAG,0.415 z-score
TTAGCTATCAGTCTCGATTAGTGCTAG,1.41 z-score
ATAGGTTCCGGTTTCGGTTAGTGCTAG,7.56 z-score
TTAGATATCAGTTTCGAGTAGTGCTAG,3.23 z-score
GTCGGTTTCCTTATCCTGACGTGCTAG,9.24 z-score

# Other studies, line by line
Structure (SMILES),system,conditions,how to read,measurement,value
COc1ccc(-c2c(Nc3ccccn3)[nH]c3c(C4=CCCCC4)c(-c4ccccc4)nn3c2=O)cc1,"human, plasma","oral, 200 mg twice daily",relative to: (Cmax-Ctau) over Ctau,swing over dosing interval,0.535 and 0.285 and 0.43

# Repeated from above (series 2):
target,test,remaining binding
"Calcium/calmodulin-dependent protein kinase type II subunit alpha (CAMK2A, Homo sapiens, UniProt Q9UQM7)",cell-free assay,100%
"Cyclin-dependent kinase 4 (CDK4, Homo sapiens, UniProt P11802)",cell-free assay,99%
"Transient receptor potential cation channel subfamily M member 6 (TRPM6, Homo sapiens, UniProt Q9BX84)",cell-free assay,71%
"Proto-oncogene tyrosine-protein kinase receptor Ret (RET, Homo sapiens, UniProt P07949)",cell-free assay,100%
"Cyclin-dependent kinase 13 (CDK13, Homo sapiens, UniProt Q14004)",cell-free assay,100%
